Assay results collected from several papers.
Compare with care: the assays were run in different laboratories. “And” joins repeats or separate records; there may be more than shown.

Substance	tested on	test	test system	setting	scale	measurement	value
gentamicin	Escherichia coli	time-kill	–	1 x MIC, 0 min	–	viable count	6.5 log CFU/mL
colistin	Escherichia coli	–	tetracycline-resistant	0.0156 µM, added: tetracycline	–	FIC index	0.6
Peginesatide	UT7/EPO	tyrosine phosphorylation, LC-MS/MS phosphoproteomics, trypsin, item: STAT3 tyrosine 704	–	10 nM, 15 min, added: 10 U/mL EPO	reference: vehicle	phosphorylation level	5.5 fold
LVHYTHCGSLGV	Epstein-Barr virus	BamHI-W qPCR	peptide, B-NDG humanized mouse, EBV-infected, peripheral blood	20 mg/kg, day 14	–	EBV DNA copy number	0 copies
milbemycin oxime	Saccharomyces cerevisiae	cell growth	Pdr5 deleted, Cdr1 overexpressed	2^-7.966 µg/mL, added: fluconazole 1 µg/mL	–	OD600	1.02 and 1 and 1.04
DAPT	Bacillus cereus	–	ATCC 13061	–	–	MIC	1.5 µg/mL
CAGATACTCT	Salmonella enterica Typhimurium	RNA-seq, item: pagN	peptide, SL1344	5 µM, 15 min	reference: water	log2 fold change	2.59
QGRWDHETIV	human MAGI1-3/6 PDZ construct (MBP fusion)	surface plasmon resonance	peptide	concentration not given	higher = stronger binding	normalised SPR binding response	25.9 normalised RU
CTCATTGTCT	Salmonella enterica Typhimurium	RNA-seq, item: fadL mRNA	peptide, SL1344	5 µM, 15 min	reference: water control	log2 fold change	-1.45
maraviroc	HIV-1 ADA	viral replication	HIV-infected mice, plasma	ip, 120 mg/kg twice daily, 3 weeks post-infection	reference: untreated HIV-infected mice	viral load decrease	5.2 fold
CTCATACTGA	Salmonella enterica Typhimurium	RNA-seq, item: udg mRNA	peptide, SL1344	5 µM, 15 min	reference: water control	log2 fold change	2.31
colistin	Acinetobacter baumannii	–	clinical strain 1E4	–	–	MIC	> 32 µg/mL
TCACTATCTC	Salmonella enterica Typhimurium	RNA-seq, item: SL1344_3728 transcript	peptide, SL1344	5 µM, 15 min	reference: untreated control	log2 fold change	2.59
Polymyxin B	Staphylococcus aureus	DiSC3(5) fluorescence	–	concentration not given, 66 min	higher = more depolarisation	membrane depolarisation	496 a.u. and 676 a.u. and 564 a.u.
colistin	Enterobacter cloacae	broth microdilution	clinical isolate RKI-No_76/15	–	–	MIC	≤ 0.5 µg/mL
GSGAGPETLV	human SCRIB PDZ3-4 tandem (MBP fusion)	automated holdup	peptide, purified PDZ protein	concentration not given, unit not given	reference: biotin control resin, higher = stronger binding	binding intensity	0.565

Repeated from above:
Substance	tested on	test	test system	setting	scale	measurement	value
milbemycin oxime	Saccharomyces cerevisiae	cell growth	Pdr5 deleted, Cdr1 overexpressed	2^-7.966 µg/mL, added: fluconazole 1 µg/mL	–	OD600	1.02 and 1 and 1.04
